Published values of several laboratories.
Numbered parts are unrelated; each lists some results of a single study. Substitutions count along the parent as printed.

Sample 1
Target: Ras GTPase-activating protein-binding protein 1, full length (G3BP1, Homo sapiens, UniProt Q13283)
Sequence of UniProt Q13283 (whole entry, looked up): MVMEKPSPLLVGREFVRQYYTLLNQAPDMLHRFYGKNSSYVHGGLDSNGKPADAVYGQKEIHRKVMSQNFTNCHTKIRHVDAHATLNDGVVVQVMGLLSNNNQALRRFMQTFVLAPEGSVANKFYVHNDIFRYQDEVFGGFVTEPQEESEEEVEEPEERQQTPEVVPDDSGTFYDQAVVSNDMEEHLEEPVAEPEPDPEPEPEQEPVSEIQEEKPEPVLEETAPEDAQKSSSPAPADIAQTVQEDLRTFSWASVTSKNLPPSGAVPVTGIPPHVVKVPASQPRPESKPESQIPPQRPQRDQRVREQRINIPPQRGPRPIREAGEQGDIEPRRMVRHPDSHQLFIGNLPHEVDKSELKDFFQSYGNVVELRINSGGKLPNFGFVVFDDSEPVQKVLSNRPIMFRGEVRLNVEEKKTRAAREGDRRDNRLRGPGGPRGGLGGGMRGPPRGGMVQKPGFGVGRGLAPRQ
Technique: RNA Bind-n-Seq
Molecule type: RNA
Sample: in vitro
Tested at: 200 nM
Setting: whole 134-nt RNA, ends assumed
With: 150 mM KCl
Baseline: input library
Direction: higher = stronger binding
For `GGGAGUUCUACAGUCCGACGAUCAGUCCUGUGCUACACAUCGUAUGUACCGAAUCGGUUUUUGGGGUUUUUGGGUUUUUGGAAAGUAUUAUGUUACGCCGUUCGGAUCUGCACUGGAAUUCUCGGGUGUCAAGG`, the log2 enrichment was -0.865.
`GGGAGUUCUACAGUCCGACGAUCAAGUCCUGUGCUACACAUCGUAUGUACCGAAUCGGGGAGGGGUGGGGAAAAAGGGGAAAGUAUUAUGUUACGCCGUUCGGAUCUGCACUUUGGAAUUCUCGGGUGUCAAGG` gave a log2 enrichment of 0.414.
With `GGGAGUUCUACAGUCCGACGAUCAAAAAAAGUGUGUAUUAGGAGGAGAGAGAGGAAAAAAAGAGGAAAGAAGGAAAAAAAAAAGAAUUAAAAAAAAAAAAAAGAAAAACAGAAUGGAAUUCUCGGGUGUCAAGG` the log2 enrichment was -1.02.
`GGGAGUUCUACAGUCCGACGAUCCUGUGCUACACAUCGUAUGUACCGAAUCGGGCCCCCCCGGGGCCCCCCCGGCCCCCCCGGGGAAAGUAUUAUGUUACGCCGUUCGGAUCUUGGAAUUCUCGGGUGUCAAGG` gave a log2 enrichment of -1.48.
`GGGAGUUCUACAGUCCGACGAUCACCAUGCAGGUGGGCAUCUUUGGGAAGUGGGGCAAGGGGGGGAUAGGGAGGGGGGUAACACUUUGGGAACAGGUGGUCCCAGGUCGUCUCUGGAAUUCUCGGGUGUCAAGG` has a log2 enrichment of 1.45.
`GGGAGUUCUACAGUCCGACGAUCAGUCCUGUGCUACACAUCGUAUGUACCGAAUCGGGUUUUUGGGUUUUUUUGGGAGGGAAAGUAUUAUGUUACGCCGUUCGGAUCUGCACUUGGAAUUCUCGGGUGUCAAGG` has a log2 enrichment of -0.207.
`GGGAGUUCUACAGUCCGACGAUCCAAGUCCUGUGCUACACAUCGUAUGUACCGAAUCGGGAGGGUGGGUUUUUUUGGGAAAGUAUUAUGUUACGCCGUUCGGAUCUGCACUUCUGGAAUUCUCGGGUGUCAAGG` has a log2 enrichment of 0.445.
`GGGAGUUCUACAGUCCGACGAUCAAGUCCUGUGCUACACAUCGUAUGUACCGAAUCGGGGUGGGGUGGGGUUUUUGGGGAAAGUAUUAUGUUACGCCGUUCGGAUCUGCACUUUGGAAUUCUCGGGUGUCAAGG` has a log2 enrichment of 0.586.
`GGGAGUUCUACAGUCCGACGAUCCAAGUCCUGUGCUACACAUCGUAUGUACCGAAUCGGGAAAGGGAAAGGGAAAGGGGAAAGUAUUAUGUUACGCCGUUCGGAUCUGCACUUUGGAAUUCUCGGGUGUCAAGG` gave a log2 enrichment of 0.623.
For `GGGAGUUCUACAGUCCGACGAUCUCCUGUGCUACACAUCGUAUGUACCGAAUCGGGUUUUUGGGAAAAAGGGUUUUUUUGGGAAAGUAUUAUGUUACGCCGUUCGGAUCUGCAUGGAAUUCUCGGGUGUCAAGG`, the log2 enrichment was -0.375.

Sample 2
Target: Histone acetyltransferase KAT6A, both winged helices, GST fusion (KAT6A, Homo sapiens, UniProt Q92794, residues 1-181)
Technique: protein binding microarray
Molecule type: double-stranded DNA, one strand shown
Sample: in vitro
Tested at: not given
Setting: 8-mer, flanks averaged, mean of 2 arrays, mostly near background
Baseline: not given
Direction: higher = stronger binding
Residues (chain): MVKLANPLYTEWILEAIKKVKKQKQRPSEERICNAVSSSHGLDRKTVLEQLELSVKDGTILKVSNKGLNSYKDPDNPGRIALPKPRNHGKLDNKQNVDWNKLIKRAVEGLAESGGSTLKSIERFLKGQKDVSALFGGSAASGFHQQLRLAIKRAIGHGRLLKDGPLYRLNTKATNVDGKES
For `TATTTACA`, the E-score was -0.099.
The E-score of `CTGTGACC` is reported as -0.0968.
For `AATAAACT`, the E-score was 0.101.
`AAGCGGAC` has an E-score of 0.189.
For `CGGTCGCA`, the E-score was 0.21.
For `GCAGTCGA`, the E-score was 0.0728.
With `TGATAAAA` the E-score was 0.106.
For `CGTTGCCA`, the E-score was 0.0355.
With `GCACGGGC` the E-score was 0.212.
The E-score of `GCGACAGC` is reported as 0.188.
`ACTTTACT` gave an E-score of -0.164.
The E-score of `CTGACTCC` is reported as -0.0783.
With `ACTTCCAT` the E-score was -0.0214.
The E-score of `AGCCATTG` is reported as -0.124.
The E-score of `ATACAGAG` is reported as -0.069.
The E-score of `CATTGGAC` is reported as -0.00838.
With `GCATGTGA` the E-score was 0.0116.
`CCCAGTTC` gave an E-score of -0.258.
`AGTGAACC` gave an E-score of 0.0376.
The E-score of `CCTAGTCC` is reported as -0.125.
`AGTGAATA` has an E-score of -0.0669.
For `AAAGTCAG`, the E-score was -0.011.
`AGATGTCA` has an E-score of -0.024.
For `ACTATGGC`, the E-score was -0.044.
`ACGTCGCG` has an E-score of 0.265.

Sample 3
Target: CCNE1, cyclin fold, Cln2 fusion (human)
Technique: yeast growth competition, sequencing
Sample: yeast
Setting: weak parent motif
Baseline: not given
Direction: higher = stronger binding
Starting sequence: ORC1 docking peptide (human); PRARKRLELGNLG
`L7W` — result for “normalised enrichment score”: 0.487.
Under “normalised enrichment score”, `K5L` is recorded as 0.297.
`G13L` — result for “normalised enrichment score”: -0.0455.
`L12P` — result for “normalised enrichment score”: 0.765.
For `A3H`, “normalised enrichment score” read 0.938.
For `N11C`, “normalised enrichment score” read 1.11.
`L12H`: “normalised enrichment score” 0.555.
For `L9K`, “normalised enrichment score” read 0.166.
For `L7H`, “normalised enrichment score” read -0.157.
Under “normalised enrichment score”, `K5I` is recorded as 0.69.
`G13S`: “normalised enrichment score” 0.742.
For `N11T`, “normalised enrichment score” read 0.635.
`R6A` — result for “normalised enrichment score”: -0.269.
`L12W` — result for “normalised enrichment score”: 1.13.
Under “normalised enrichment score”, `R6F` is recorded as 0.927.
`A3D`: “normalised enrichment score” -0.175.
`R4S` — result for “normalised enrichment score”: -0.188.
For `R4W`, “normalised enrichment score” read 0.452.
Under “normalised enrichment score”, `A3Y` is recorded as 1.11.
For `R2K`, “normalised enrichment score” read 0.265.
Under “normalised enrichment score”, `G13M` is recorded as 1.03.
For `L9S`, “normalised enrichment score” read 0.518.
For `G10Y`, “normalised enrichment score” read 2.62.
`P1Q` — result for “normalised enrichment score”: 0.908.
`P1L` — result for “normalised enrichment score”: 0.252.

Sample 4
Target: RNA binding protein fox-1 homolog 2, RRM domain, GST-SBP tag (RBFOX2, Homo sapiens, UniProt O43251-10, residues 100-194)
Technique: RNA Bind-n-Seq
Molecule type: RNA
Sample: in vitro
Tested at: 365 nM
Setting: natural RNA segment, single round, ends assumed
Baseline: no-protein control
Direction: higher = stronger binding
Construct (chain): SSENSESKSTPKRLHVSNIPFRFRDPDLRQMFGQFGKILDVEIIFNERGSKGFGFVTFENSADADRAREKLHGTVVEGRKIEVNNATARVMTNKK
`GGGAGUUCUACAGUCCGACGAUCCAGUCCUUUCUUACAACAACUUGGAGCCAUAGUAACCUCCGAAAUGAGGUCUCAGCAAGCCACUUUACCACAACGAGCAACCCACCCAUAGGCACGUACCAGCCGCCACUUGGAAUUCUCGGGUGCCAA`: “RBNS enrichment (R)” 0.375.
For `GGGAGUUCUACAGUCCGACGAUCGCUGCUCUUAGGUUUGUGUGUGUUUCUCUCCUGGCCAUCCACCCCGGCUGUGGGUCCACCCCAGCCGAGGGACUCCUGGCCUGCAUUGCGGGAUUGUCAGUGGCAUUUAGUGGAAUUCUCGGGUGCCAA`, “RBNS enrichment (R)” read 1.18.
`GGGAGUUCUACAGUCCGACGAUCUGCCUCAGGGAUUGUCUCUGUUCCUUCGCUGAGGCCCUCUACUUAGGGCUGAACAUAGGAUUUAUGGCUAGCAGAAUUCCAGCUCCCUUGGGUAAGGAACCAAAGCUCUCUGGAAUUCUCGGGUGCCAA`: “RBNS enrichment (R)” 0.382.
`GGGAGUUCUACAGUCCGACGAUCUUUAAAGAAGAGAAAAACACCUUGAGCCUUAAAACGGUGCUGCUGGGAAACAUUUGCACUCUUUUAGUGCAUUUCCUCCUGCCUUUGCUUGUUCACUGCAGUCUUAAGAAUGGAAUUCUCGGGUGCCAA`: “RBNS enrichment (R)” 0.708.
Under “RBNS enrichment (R)”, `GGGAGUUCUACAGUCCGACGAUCAAACAAACGAAUGAAUGAACAGACACACACAAUGUUCCAAGUUCCCCUAAAAUAUGACCCACUUGUUCUGGGUCUACGCAGAAAAGAGACGCAAAGUGUCCAAAAGGAACUGGAAUUCUCGGGUGCCAA` is recorded as 0.429.
`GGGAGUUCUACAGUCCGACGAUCGCCGGGCCCCCUGUGCCUCUAGCAUAUGUGUAUUGACUCUCAUAGUUACCCUUUUCGUUUACUGUGUUCUGUGAAAACUUGUAAUUGGUUGAGAAUCACUGUGGGCGUCCUGGAAUUCUCGGGUGCCAA` — result for “RBNS enrichment (R)”: 0.321.
`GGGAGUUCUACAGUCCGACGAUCUGACUGCGUUCAUCAGUUUUACACUGGGGCUGCUACAUAAUAUUUUCAUUUGAACGAAGAACUUCAAAAAGCACAGGACUAGAUGAUCUCUGUUCCUUUUGGCUCUAAUAUGGAAUUCUCGGGUGCCAA` — result for “RBNS enrichment (R)”: 0.5.
`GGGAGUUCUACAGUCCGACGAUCUACCUCUUUCCUUGACUCUCUUCUUAUUUGUAAUACUCUGAGUUCUGCAUCUGUCUCAGACAGGAGCUACCAAAGGGAAACUGUUGUUCUUAUAAGUGUCUUACUUUAAAUGGAAUUCUCGGGUGCCAA` — result for “RBNS enrichment (R)”: 0.241.
Under “RBNS enrichment (R)”, `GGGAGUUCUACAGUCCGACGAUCCUUCAGAAGUUUGCUUCUUAUGGUAUAAUAAAGUAUGGAAGAAUAUUGAGUAUAUGUUUACUCUGGGCCUGGGAGAACUUAACUUUCUAGAGCAGUUUGUUGACUUGUGUUGGAAUUCUCGGGUGCCAA` is recorded as 0.695.
Under “RBNS enrichment (R)”, `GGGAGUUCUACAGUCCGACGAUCCAGCCUGUCCAUCAAAACUUGUCCUGUACCCAGGACAGUACCAGCUUCCUGUCCCCCGACCCUAACAGGUGCCUUAAAAGGCCCUCUCCCACCCAAGGUGGGGGGGCCAGUGGAAUUCUCGGGUGCCAA` is recorded as 0.229.
`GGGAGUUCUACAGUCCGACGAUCAGGAGAUGAAGUUUGGAAUCCAGUUUCUUUGGCUCAGAGCUGCUUUCAGUACCACUUGUUUUUAGCAGACUGUCAUGGCUGCAGCUCUGUCUCUCUUGGGGUAAACUUGCUGGAAUUCUCGGGUGCCAA` — result for “RBNS enrichment (R)”: 0.392.
`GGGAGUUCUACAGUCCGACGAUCCUGGGGGACUGGGGGGCCAUUUCCUUUUCUCUGCCCUUUUUUUGUUGUUCUAUUUUGUACAGACAAGUUGGAAAAACAACAGCGACAAAAAAGUCAAGAAACUUUGUAAAUGGAAUUCUCGGGUGCCAA` — result for “RBNS enrichment (R)”: 0.51.

A few entries again (sample 3):
`P1Q` — result for “normalised enrichment score”: 0.908.
For `N11T`, “normalised enrichment score” read 0.635.
For `R4W`, “normalised enrichment score” read 0.452.
For `L7H`, “normalised enrichment score” read -0.157.
`L12W` — result for “normalised enrichment score”: 1.13.
For `L9S`, “normalised enrichment score” read 0.518.
For `G10Y`, “normalised enrichment score” read 2.62.
`L12H`: “normalised enrichment score” 0.555.
Under “normalised enrichment score”, `G13M` is recorded as 1.03.
`R4S` — result for “normalised enrichment score”: -0.188.
`L7W` — result for “normalised enrichment score”: 0.487.
Under “normalised enrichment score”, `R6F` is recorded as 0.927.
